Assay results of several laboratories.
Every numbered part comes from another study and shows a few of its results, in no order. Several values in a cell are separate wells, animals, samples, runs or records.
UniProt P54762, sequence (whole entry, looked up): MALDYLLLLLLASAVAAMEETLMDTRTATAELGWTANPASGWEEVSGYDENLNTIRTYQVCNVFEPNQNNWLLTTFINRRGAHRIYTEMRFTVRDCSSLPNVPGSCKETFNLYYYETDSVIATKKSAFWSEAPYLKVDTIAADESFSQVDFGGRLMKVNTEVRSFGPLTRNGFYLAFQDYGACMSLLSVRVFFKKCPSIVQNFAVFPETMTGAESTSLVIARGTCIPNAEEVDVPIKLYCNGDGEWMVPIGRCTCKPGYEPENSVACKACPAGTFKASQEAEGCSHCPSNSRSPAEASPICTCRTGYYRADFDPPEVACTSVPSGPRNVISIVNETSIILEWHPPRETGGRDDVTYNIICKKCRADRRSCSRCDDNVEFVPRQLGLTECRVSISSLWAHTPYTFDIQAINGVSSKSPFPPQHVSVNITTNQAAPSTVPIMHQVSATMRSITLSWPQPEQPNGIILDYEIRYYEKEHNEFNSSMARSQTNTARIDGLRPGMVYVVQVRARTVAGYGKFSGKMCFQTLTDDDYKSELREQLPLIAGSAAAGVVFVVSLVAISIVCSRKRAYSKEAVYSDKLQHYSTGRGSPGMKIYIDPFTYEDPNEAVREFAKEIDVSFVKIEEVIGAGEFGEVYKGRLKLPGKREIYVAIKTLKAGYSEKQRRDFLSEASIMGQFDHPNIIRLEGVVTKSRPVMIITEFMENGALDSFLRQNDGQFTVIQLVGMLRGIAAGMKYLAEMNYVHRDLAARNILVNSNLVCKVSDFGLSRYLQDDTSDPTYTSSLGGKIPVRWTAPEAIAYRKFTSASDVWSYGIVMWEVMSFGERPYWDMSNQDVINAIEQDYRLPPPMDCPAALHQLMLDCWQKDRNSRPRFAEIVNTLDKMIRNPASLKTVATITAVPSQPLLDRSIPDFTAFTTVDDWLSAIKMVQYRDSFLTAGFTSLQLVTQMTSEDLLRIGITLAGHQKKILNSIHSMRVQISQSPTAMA
UniProt Q9Y5S2, sequence (whole entry, looked up): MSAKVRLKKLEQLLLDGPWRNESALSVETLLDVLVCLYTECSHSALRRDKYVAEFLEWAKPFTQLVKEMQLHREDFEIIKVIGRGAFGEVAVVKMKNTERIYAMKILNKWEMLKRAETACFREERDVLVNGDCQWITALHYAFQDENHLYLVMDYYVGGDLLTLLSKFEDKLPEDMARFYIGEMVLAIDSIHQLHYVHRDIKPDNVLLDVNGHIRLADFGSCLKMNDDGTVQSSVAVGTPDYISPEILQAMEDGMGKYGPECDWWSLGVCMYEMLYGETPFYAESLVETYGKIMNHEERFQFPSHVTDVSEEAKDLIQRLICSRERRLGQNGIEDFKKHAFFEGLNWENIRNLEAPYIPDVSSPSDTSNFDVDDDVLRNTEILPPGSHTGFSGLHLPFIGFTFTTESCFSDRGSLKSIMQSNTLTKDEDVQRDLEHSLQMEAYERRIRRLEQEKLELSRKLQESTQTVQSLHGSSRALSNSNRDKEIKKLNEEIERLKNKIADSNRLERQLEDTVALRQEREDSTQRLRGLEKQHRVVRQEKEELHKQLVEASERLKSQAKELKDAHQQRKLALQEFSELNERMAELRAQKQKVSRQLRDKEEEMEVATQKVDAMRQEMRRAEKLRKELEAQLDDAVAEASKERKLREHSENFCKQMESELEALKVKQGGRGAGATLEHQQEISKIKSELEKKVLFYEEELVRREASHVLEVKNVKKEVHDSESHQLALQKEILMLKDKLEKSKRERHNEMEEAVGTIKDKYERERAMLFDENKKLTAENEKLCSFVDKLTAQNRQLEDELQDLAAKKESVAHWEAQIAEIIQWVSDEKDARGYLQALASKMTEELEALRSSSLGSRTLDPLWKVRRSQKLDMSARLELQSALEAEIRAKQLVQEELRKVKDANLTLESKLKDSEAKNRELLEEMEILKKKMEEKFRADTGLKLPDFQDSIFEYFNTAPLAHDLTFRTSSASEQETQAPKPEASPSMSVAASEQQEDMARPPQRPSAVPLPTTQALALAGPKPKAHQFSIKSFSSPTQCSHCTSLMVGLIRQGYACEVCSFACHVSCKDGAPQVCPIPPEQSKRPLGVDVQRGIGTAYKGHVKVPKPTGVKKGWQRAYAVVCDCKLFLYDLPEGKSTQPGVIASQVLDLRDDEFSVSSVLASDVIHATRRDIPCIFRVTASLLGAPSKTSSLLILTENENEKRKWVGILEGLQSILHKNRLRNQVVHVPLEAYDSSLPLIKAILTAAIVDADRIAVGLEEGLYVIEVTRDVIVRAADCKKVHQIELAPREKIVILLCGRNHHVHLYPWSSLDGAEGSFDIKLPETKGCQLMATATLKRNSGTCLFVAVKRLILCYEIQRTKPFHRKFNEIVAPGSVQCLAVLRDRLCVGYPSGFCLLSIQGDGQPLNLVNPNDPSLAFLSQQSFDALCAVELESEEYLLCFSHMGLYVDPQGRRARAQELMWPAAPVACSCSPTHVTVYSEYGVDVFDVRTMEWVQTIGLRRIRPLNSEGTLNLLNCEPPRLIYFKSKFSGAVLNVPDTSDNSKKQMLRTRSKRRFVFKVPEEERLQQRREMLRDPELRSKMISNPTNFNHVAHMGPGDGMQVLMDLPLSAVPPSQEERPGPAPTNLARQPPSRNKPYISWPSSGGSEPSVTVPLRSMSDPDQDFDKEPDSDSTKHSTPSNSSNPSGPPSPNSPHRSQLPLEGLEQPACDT
UniProt Q9NSY1, sequence (whole entry, looked up): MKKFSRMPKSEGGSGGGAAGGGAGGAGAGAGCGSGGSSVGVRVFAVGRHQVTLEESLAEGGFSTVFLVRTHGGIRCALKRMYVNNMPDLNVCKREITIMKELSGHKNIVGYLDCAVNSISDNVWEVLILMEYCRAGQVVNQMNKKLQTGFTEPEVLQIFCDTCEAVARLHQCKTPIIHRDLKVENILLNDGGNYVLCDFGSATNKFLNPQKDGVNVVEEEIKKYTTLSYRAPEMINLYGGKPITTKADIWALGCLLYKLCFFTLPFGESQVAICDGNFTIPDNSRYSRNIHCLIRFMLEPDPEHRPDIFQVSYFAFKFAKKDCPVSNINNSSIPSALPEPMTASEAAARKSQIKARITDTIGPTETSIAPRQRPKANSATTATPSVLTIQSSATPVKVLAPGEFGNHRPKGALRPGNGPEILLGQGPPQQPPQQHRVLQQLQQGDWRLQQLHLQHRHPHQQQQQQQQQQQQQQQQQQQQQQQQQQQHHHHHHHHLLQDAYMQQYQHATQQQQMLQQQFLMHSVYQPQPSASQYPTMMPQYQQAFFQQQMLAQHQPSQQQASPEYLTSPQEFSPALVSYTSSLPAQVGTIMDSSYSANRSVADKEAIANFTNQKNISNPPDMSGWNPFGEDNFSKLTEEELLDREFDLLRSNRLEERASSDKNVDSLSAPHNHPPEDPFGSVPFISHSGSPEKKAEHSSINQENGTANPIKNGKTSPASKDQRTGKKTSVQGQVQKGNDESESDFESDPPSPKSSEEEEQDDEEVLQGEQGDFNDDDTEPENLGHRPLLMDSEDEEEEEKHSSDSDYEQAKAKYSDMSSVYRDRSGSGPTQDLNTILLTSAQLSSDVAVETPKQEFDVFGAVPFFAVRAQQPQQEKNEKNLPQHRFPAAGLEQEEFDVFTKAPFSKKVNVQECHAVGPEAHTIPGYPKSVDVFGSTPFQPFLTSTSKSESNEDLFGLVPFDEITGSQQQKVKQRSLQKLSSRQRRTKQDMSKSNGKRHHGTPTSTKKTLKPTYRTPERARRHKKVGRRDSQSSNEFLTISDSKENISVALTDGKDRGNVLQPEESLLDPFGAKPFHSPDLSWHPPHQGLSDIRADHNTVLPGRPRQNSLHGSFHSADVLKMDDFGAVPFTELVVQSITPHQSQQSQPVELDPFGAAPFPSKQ
UniProt O43781, sequence (whole entry, looked up): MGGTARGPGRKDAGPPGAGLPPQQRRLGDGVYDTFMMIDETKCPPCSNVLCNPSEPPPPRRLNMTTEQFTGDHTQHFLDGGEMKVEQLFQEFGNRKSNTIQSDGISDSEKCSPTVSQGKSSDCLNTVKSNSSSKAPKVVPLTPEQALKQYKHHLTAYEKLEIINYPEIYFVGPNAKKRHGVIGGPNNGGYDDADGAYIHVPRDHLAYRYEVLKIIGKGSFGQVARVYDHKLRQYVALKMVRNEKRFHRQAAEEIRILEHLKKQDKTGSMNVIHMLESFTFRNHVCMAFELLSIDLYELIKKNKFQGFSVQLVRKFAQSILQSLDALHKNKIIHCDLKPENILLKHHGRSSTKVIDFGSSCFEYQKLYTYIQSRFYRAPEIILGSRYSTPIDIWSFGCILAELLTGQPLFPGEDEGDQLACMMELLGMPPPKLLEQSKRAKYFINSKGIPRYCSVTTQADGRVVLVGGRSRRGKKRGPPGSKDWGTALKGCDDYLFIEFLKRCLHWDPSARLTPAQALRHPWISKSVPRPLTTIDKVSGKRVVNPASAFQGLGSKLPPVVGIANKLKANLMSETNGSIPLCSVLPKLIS
UniProt P49841, sequence (whole entry, looked up): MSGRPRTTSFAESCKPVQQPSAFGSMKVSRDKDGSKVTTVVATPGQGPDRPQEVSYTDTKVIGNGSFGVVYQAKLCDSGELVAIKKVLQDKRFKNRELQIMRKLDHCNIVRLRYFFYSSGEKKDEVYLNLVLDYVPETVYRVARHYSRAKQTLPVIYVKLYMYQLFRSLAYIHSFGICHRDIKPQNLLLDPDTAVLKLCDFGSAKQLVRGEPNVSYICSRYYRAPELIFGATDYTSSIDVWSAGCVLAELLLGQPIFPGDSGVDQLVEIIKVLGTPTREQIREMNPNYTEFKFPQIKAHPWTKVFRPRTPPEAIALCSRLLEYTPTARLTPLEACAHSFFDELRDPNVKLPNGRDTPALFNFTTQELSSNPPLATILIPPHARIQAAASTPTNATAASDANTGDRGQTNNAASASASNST

Block 1
SMILES: NS(=O)(=O)c1cc(NC(=O)C2(c3ccccc3Cl)CC2)ccc1Oc1cccc(Cl)c1
Effect on: cell-free assay
Technique: competition with immobilised ligand
Concentration: 1 µM
target | remaining binding [%]
PLK1 (Homo sapiens, UniProt P53350) | 92
CHUK (Homo sapiens, UniProt O15111) | 100
BMP2K (Homo sapiens, UniProt Q9NSY1) | 74
SIK2 (Homo sapiens, UniProt Q9H0K1) | 100
ACVR1B (Homo sapiens, UniProt P36896) | 89
MAP2K1 (Homo sapiens, UniProt Q02750) | 88
ERN1 (Homo sapiens, UniProt O75460) | 61
EGFR (Homo sapiens, UniProt P00533, L858R) | 79
PIK3CA (Homo sapiens, UniProt P42336, E542K) | 80
STK16 (Homo sapiens, UniProt O75716) | 100
STK11 (Homo sapiens, UniProt Q15831) | 100
NEK5 (Homo sapiens, UniProt Q6P3R8) | 89
STK32C (Homo sapiens, UniProt Q86UX6) | 100
MAP3K15 (Homo sapiens, UniProt Q6ZN16) | 86
MET (Homo sapiens, UniProt P08581, Y1235D) | 61
Tyrosine-protein kinase ABL1, non-phosphorylated (ABL1, Homo sapiens, UniProt P00519, F317L) | 88
SRC (Homo sapiens, UniProt P12931) | 88
MET (Homo sapiens, UniProt P08581, M1250T) | 68
GSK3B (Homo sapiens, UniProt P49841) | 100
AKT2 (Homo sapiens, UniProt P31751) | 100
MELK (Homo sapiens, UniProt Q14680) | 96
CSNK1A1L (Homo sapiens, UniProt Q8N752) | 84
CDC42BPB (Homo sapiens, UniProt Q9Y5S2) | 62
HASPIN (Homo sapiens, UniProt Q8TF76) | 96
MAP3K6 (Homo sapiens, UniProt O95382) | 100

Block 2
Compound: O=C(c1ccccc1)c1ccc(N2CCOCC2)cc1O
Effect on: enzyme activity
Action: inhibitor
Concentration: 0.5 µM
Reference: control
target | remaining activity [%]
Cyclin-dependent kinase 4, with cyclin D3 (CDK4, Homo sapiens, UniProt P11802) | 96.2
Cyclin-dependent kinase 1, with cyclin B (CDK1, Homo sapiens, UniProt P06493) | 92.3
CAMK2B (Homo sapiens, UniProt Q13554) | 105
EPHB1 (Homo sapiens, UniProt P54762) | 104
TSSK2 (Homo sapiens, UniProt Q96PF2) | 104
DYRK3 (Homo sapiens, UniProt O43781) | 98.9
Cyclin-dependent kinase 6, with cyclin D3 (CDK6, Homo sapiens, UniProt Q00534) | 97.7

Block 3
Technique: PRP-column chromatography
SMILES | average log k' (20-100)
Cc1ncsc1-c1ccc(CNC(=O)[C@@H]2C[C@@H](O)CN2C(=O)[C@@H](NC(=O)CCCCCNC(=O)C2CCCCC2)C(C)(C)C)cc1 | 1.05
CCCCOc1ccc(-c2ccc(C(=O)OCCCCCC(=O)N[C@H](C(=O)N3C[C@H](O)C[C@H]3C(=O)NCc3ccc(-c4scnc4C)cc3)C(C)(C)C)cc2)cc1 | 1.4
Cc1ncsc1-c1ccc(CNC(=O)[C@@H]2C[C@@H](O)CN2C(=O)[C@@H](NC(=O)CCCCCNC(=O)CC23C[C@H]4C[C@@H](C2)C[C@@H](C3)C4)C(C)(C)C)cc1 | 1.18
Cc1ncsc1-c1ccc(CNC(=O)[C@@H]2C[C@@H](O)CN2C(=O)[C@@H](NC(=O)CCCCCOC(=O)CC(c2ccccc2)c2ccccc2)C(C)(C)C)cc1 | 1.28
CCCC(=O)OCCCCCC(=O)N[C@H](C(=O)N1C[C@H](O)C[C@H]1C(=O)NCc1ccc(-c2scnc2C)cc1)C(C)(C)C | 1.11

Block 4
Cell line: mouse MPNST tumor cells
Technique: high-content immunofluorescence imaging
Item: nuclear SOX9
Concentration: 10 µM
Time: 12 h
Setting: mean of 2 replicates
Reference: DMSO control
Direction: higher = more nuclear SOX9
SMILES | nuclear SOX9 intensity
Cc1ccc(O)c(NC(=O)CCc2ccccc2)c1 | 80.2 % of DMSO
COc1cc(C)c(/C=C/C(C)=C/C=C/C(C)=C/C(=O)O)c(C)c1C | 112 % of DMSO
Cc1nc(C)c(Cl)c(O)c1Cl | 90.5 % of DMSO
Cc1nc(Nc2cnn(C3CCNCC3)c2)nc2c1N(C)C(=O)c1cc3ccccc3cc1N2C | 205 % of DMSO
Nc1ccc(S(=O)(=O)c2ccc(N)cc2)cc1 | 104 % of DMSO
COc1ccc(S(=O)(=O)Nc2cccnc2Nc2ccc(O)cc2)cc1 | 197 % of DMSO
Cc1oncc1C(=O)Nc1ccc(C(F)(F)F)cc1 | 119 % of DMSO and 131 % of DMSO
NCc1ccccc1CC(=O)N[C@@H]1C(=O)N2C(C(=O)O)=C(CSc3nnnn3CC(=O)O)CS[C@H]12 | 101 % of DMSO
Nc1nc(Cl)nc2c1ncn2[C@H]1C[C@H](O)[C@@H](CO)O1 | 112 % of DMSO
c1ccc(Oc2nc(NC3CCCCC3)c3[nH]cnc3n2)cc1 | 136 % of DMSO
NCCNC(=O)c1ccc(Cl)cn1 | 99.4 % of DMSO

Block 5
Host: mouse
Matrix: microsomes or S9
Concentration: 2 µM
Time: 0.5 h
Compound | remaining compound [%]
CC(C)(C)c1nc(CS(=O)(=O)c2nnc3c(Cl)cc(Cl)cn23)cs1 | 0.626
COC(=O)C1C(C(=O)OC)C2(OC(c3ccccc3)=CC2=O)C12OC(c1ccccc1)=CC2=O (stereo not drawn) | 60.2
Cc1ccc(Nc2c(-c3cc(Br)ccc3O)nc3ncccn23)c(C)c1 | 8.25
O=C1CCC2(C(=O)NCCCn3cccn3)CCCC=C2N1C1CCCC1 (stereo not drawn) | 1.99
CN(C)S(=O)(=O)N1CCN(Cc2c(O)occ(CN3CCOCC3)c2=O)CC1 | 84.7
CC(C)c1noc(CCCn2ccc(-c3ccc(Br)cc3)n2)n1 | > 100
CN(C)CCN(Cc1ccncc1)Cc1c(F)cccc1Cl | 40.5
CCc1ccc(-n2c3nc(=O)[nH]c(=O)c-3cc3c(Cl)cccc32)cc1 | 20.6

Other studies, line by line
Compound | assay | test system | conditions | endpoint | result
CCCN1C(=O)[C@H](CC(C)C)NC(=O)[C@@H](N(C)C(=O)[C@H](CC2CCC2)NC(=O)[C@@H]2C[C@@H](F)CN2C(=O)[C@@](C)(O)C(F)(F)F)CCCCNC(=O)C2(CC2)NC(=O)[C@@H]1Cc1cc(Cl)ccc1Cl | immunohistochemistry | mice, NCI-H69 xenograft, tumour | intravenous, 100 mg/kg once daily, 18 h | phospho-KNL1 positive cells | 5% and 7.33% and 5.5%

Repeated from above (block 1):
target | remaining binding [%]
GSK3B (Homo sapiens, UniProt P49841) | 100
AKT2 (Homo sapiens, UniProt P31751) | 100
MELK (Homo sapiens, UniProt Q14680) | 96
CSNK1A1L (Homo sapiens, UniProt Q8N752) | 84
CDC42BPB (Homo sapiens, UniProt Q9Y5S2) | 62
HASPIN (Homo sapiens, UniProt Q8TF76) | 96
